# Measured values from different studies.
# Protocols differ between the studies behind these lines. Numbers after ± are the reported error.
# SPT15/TOA1/TOA2/SUA7 1-240; 1-286; 1-122; 1-345: SPT15/TOA1/TOA2/SUA7 1-240; 1-286; 1-122; 1-345 (Saccharomyces cerevisiae)
# Fibroin-modulator-binding protein-1: Fibroin-modulator-binding protein-1 99-193 (Bombyx mori, UniProt Q5FBS0)
Sequence,target,test,test system,conditions,scale,quantity,value
CTTGAAGGGGGGCTATAAAAGGGGGTGGGGGCGCGTCAAGTCAATCGGTCC (dsDNA; 5'-amino-C6 primer),SPT15/TOA1/TOA2/SUA7 1-240; 1-286; 1-122; 1-345,array,"double-stranded DNA, one strand shown",TBP:TFIIA:TFIIB ternary complex,,Kd,0.00198 ± 0.0002 µM
AGGCAGGCAGGC (dsDNA),Fibroin-modulator-binding protein-1,ITC,"double-stranded DNA, one strand shown",,,Kd,7.75 µM
GGGAGAACUUCGACCAGAAGUGGAACUACGCGACAAACUUCCCGCCUGUUCCACCUUAUGUAUGUGCGCAUACAUGGAUCCUC (ssRNA; 2'-fluoro pyrimidines),integrin alphaV/beta3 31-992/27-718 (Homo sapiens),SPR,RNA,together with: MnCl2 1 mM,higher = more binding,relative binding,100 RU
ATTTTTTAGTCCTATATATACTCGCTCTGCACTTGTCAAGTCAATCGGTCC (dsDNA; 5'-amino-C6 primer),SPT15/TOA1/TOA2/SUA7 1-240; 1-286; 1-122; 1-345,array,"double-stranded DNA, one strand shown",TBP:TFIIA:TFIIB ternary complex,,Kd,0.00206 ± 0.00089 µM
GCCCGCCCGCCC (dsDNA),Fibroin-modulator-binding protein-1,ITC,"double-stranded DNA, one strand shown",,,Kd,10.5 µM
GGGAGAACUUCGACCAGAAGACUAUAUCCGCCGUACUACGCAUCUUUUUCUUCCUGCCUGUAUGUGCGCAUACAUGGAUCCUC (ssRNA; 2'-fluoro pyrimidines),integrin alphaV/beta3 31-992/27-718 (Homo sapiens),SPR,RNA,together with: MnCl2 1 mM,higher = more binding,relative binding,45.2 RU
CTCAGGAATTCCTATAAGGTAATGTGGAGCTCAGTTCAAGTCAATCGGTCC (dsDNA; 5'-amino-C6 primer),SPT15/TOA1/TOA2/SUA7 1-240; 1-286; 1-122; 1-345,array,"double-stranded DNA, one strand shown",TBP:TFIIA:TFIIB ternary complex,,Kd,0.00345 ± 0.0006 µM
GGGAGAACUUCGACCAGAAGCUACCAGGUCUUGCACAUUACGCGACAACCAAGCCCCGCCUAUGUGCGCAUACAUGGAUCCUC (ssRNA; 2'-fluoro pyrimidines),integrin alphaV/beta3 31-992/27-718 (Homo sapiens),SPR,RNA,together with: MnCl2 1 mM,higher = more binding,relative binding,21.9 RU
GCAAGCAAGCAA (dsDNA),Fibroin-modulator-binding protein-1,ITC,"double-stranded DNA, one strand shown",,,Kd,12.2 µM
"DNA 1 TGGGTGGGTAGGGTGGGTAGGGGAGGAT / DNA 2 ATCCTCCCCTA (DNA; intramolecular parallel G4, 5' overhang, 11-bp duplex)","REV1 330-833 D700N (Homo sapiens, UniProt Q9UBZ9)",FP,folded DNA,KCl 100 mM,,Kd,0.003 ± 0.0009 µM
GACAGACAGACA (dsDNA),Fibroin-modulator-binding protein-1,ITC,"double-stranded DNA, one strand shown",,,Kd,5.42 ± 0.75 µM
GGGAGAACUUCGACCAGAAGGAAGACAAGCGCACACAACGGAUGACGGGAGAAACAAUGAUAUGUGCGCAUACAUGGAUCCUC (ssRNA; 2'-fluoro pyrimidines),integrin alphaV/beta3 31-992/27-718 (Homo sapiens),SPR,RNA,together with: MnCl2 1 mM,higher = more binding,relative binding,27.6 RU
CGAGCGAGCGAG (dsDNA),Fibroin-modulator-binding protein-1,ITC,"double-stranded DNA, one strand shown",,,Kd,7.65 ± 0.753 µM
"DNA 1 CACTGGCCGTCTTACGGTCGCTCTGCTCGACG / DNA 2 CGACCGTAAGACGGCCAGTG (dsDNA; 20 bp, 3' 12 nt overhang)","RECQL 63-592 E328A (Homo sapiens, UniProt P46063)",fluorescence anisotropy,double-stranded DNA,together with: Mg2+ 3 mM,,Kd,0.0171 ± 0.001 µM
GGGAGAACUUCGACCAGAAGAAUGCUAAAAUCCAGCGGCGCACGCGAUGACGGGAGAAACUAUGUGCGCAUACAUGGAUCCUC (ssRNA; 2'-fluoro pyrimidines),integrin alphaV/beta3 31-992/27-718 (Homo sapiens),SPR,RNA,together with: MnCl2 1 mM,higher = more binding,relative binding,73 RU

# Some of these lines once more:
Sequence,target,test,test system,conditions,scale,quantity,value
GGGAGAACUUCGACCAGAAGAAUGCUAAAAUCCAGCGGCGCACGCGAUGACGGGAGAAACUAUGUGCGCAUACAUGGAUCCUC (ssRNA; 2'-fluoro pyrimidines),integrin alphaV/beta3 31-992/27-718 (Homo sapiens),SPR,RNA,together with: MnCl2 1 mM,higher = more binding,relative binding,73 RU
